Results pooled from the literature.
Protocols differ between the studies behind these lines. Values joined by “and” are separate records of one study, mostly repeats; a detail may differ.
Target: Vascular endothelial growth factor receptor 3 (FLT4, Homo sapiens, UniProt P35916)

SMILES | assay | test system | setting | how to read | endpoint | result
COc1cc(Nc2nccc(-c3cnn4nc(OC)ccc34)n2)cc(C(F)(F)F)c1 | binding, competition with immobilised ligand | – | 1 µM | – | remaining binding | 100%
O=C=[N][Ru-4]123([n]4c5ccc(O)cc5c5c6c(c7cc(F)c[n+]1c7c54)C(=O)NC6=O)[S+]1CC[S+]2CC[S+]3CC1 (stereo not shown) | enzyme activity | – | 100 nM, human enzyme, together with: 10 µM ATP | reference: untreated | remaining activity | 55%
Nc1ncc(-c2cc(-c3cnn(CC(F)(F)F)c3)ncc2F)nc1C(=O)NC1CNCC(F)C1 (stereo not shown) | enzyme activity | – | 1 µM | reference: DMSO control | remaining activity | 107%
N[C@H]1CC[C@H](Nc2nccc(-c3cccnc3Oc3ccc(NC(=O)NC4CC4)c4ccccc34)n2)CC1 | kinobead competition pulldown | HEK293/HCT116 lysate mixture | 10 µM, 1 h, 4 °C | lower = stronger competition | log2 LFQ intensity | 22.5 and 22.1 and 21.8 and 22.3
CCn1cc(C(=O)O)c(=O)c2c(N)c(F)c(NC3CCCCC3)cc21 | kinase activity | – | 0.1 µM, together with: ATP at Km | – | inhibition | 3.5%
CN1CCN(Cc2ccc(-c3ccc(CO[C@H]4CCC[C@@H]4NC(=O)c4cc(-c5cnn(C)c5)cnc4N)cc3)cc2)CC1 | enzyme activity, inhibitor | – | 0.1 µM | – | inhibition | 4%
CNC(=O)C[C@H](Cc1ccc(C#N)cc1)NC(=O)c1cc(-c2ccc(CN[C@H](C)c3ccc(C)cc3)o2)ccc1Cl | enzyme activity, inhibitor | – | 1 µM | – | activity vs control | 106%
Cc1cnc2nc1Nc1cccc(c1)COC/C=C/COCc1cc(ccc1OCCN1CCOCC1)N2 | binding | – | 0.1 µM | – | remaining binding | 11%
Cc1[nH]nc2c1N=C(c1ccccc1Cl)c1cnc(N3CCOCC3)cc1N2 | enzyme activity, inhibitor | – | 0.5 µM | – | inhibition | > 99%
CCN1CCN(Cc2ccc(NC(=O)c3ccc(C)c(NC(=O)c4cncc(-c5cccs5)c4)c3)cc2C(F)(F)F)CC1 | binding, competition with immobilised ligand | – | 1 µM | – | remaining binding | 11%
C=CC(=O)N1CCc2ccc(-n3c(=O)ccc4cnc5ccc(-c6cnn(C)c6)cc5c43)cc21 | KINOMEscan | – | 1 µM | reference: DMSO control | remaining binding | 95%
C=CC(=O)Nc1cccc(-c2cnc3[nH]cc(C(=O)NC(C)(C)C)c3n2)c1 | enzyme activity, inhibitor | – | 0.1 µM | – | inhibition | 45%
Cc1cccc(O[C@H]2CCC[C@@H](C(C)CNCc3ccncc3)C2)c1 (relative stereo) | cell-free assay | – | 10 µM | – | inhibition | -3%
Nc1ncc2c(n1)-c1c([nH]c3ccc(C4=CCOCC4)cc13)CCC2 | binding, competition with immobilised ligand | – | 1 µM | – | remaining binding | 74%
NC(=O)C[C@H]1CCc2sc3ncnc(O[C@H]4CC[C@H](N5CCOCC5)CC4)c3c21 | enzyme activity, inhibitor | – | 10 µM | – | inhibition | 7%
C=CC(=O)N1Cc2nc(-c3cc(-c4cc(Cl)cnc4Cl)c(F)cc3F)n(-c3ccncn3)c2C1 | cell-free assay | – | 1 µM | – | inhibition | 0.9%

Excerpt of the above:
SMILES | assay | test system | setting | how to read | endpoint | result
CCn1cc(C(=O)O)c(=O)c2c(N)c(F)c(NC3CCCCC3)cc21 | kinase activity | – | 0.1 µM, together with: ATP at Km | – | inhibition | 3.5%
CN1CCN(Cc2ccc(-c3ccc(CO[C@H]4CCC[C@@H]4NC(=O)c4cc(-c5cnn(C)c5)cnc4N)cc3)cc2)CC1 | enzyme activity, inhibitor | – | 0.1 µM | – | inhibition | 4%
